Results from different studies.
Lines come from different studies, so protocols differ. ± gives the spread as reported.
USP16 ZnF-UBD domain: Ubiquitin carboxyl-terminal hydrolase 16, ZnF-UBD domain (USP16, Homo sapiens, UniProt Q9Y5T5)
UniProt Q9Y5T5, sequence (whole entry, looked up): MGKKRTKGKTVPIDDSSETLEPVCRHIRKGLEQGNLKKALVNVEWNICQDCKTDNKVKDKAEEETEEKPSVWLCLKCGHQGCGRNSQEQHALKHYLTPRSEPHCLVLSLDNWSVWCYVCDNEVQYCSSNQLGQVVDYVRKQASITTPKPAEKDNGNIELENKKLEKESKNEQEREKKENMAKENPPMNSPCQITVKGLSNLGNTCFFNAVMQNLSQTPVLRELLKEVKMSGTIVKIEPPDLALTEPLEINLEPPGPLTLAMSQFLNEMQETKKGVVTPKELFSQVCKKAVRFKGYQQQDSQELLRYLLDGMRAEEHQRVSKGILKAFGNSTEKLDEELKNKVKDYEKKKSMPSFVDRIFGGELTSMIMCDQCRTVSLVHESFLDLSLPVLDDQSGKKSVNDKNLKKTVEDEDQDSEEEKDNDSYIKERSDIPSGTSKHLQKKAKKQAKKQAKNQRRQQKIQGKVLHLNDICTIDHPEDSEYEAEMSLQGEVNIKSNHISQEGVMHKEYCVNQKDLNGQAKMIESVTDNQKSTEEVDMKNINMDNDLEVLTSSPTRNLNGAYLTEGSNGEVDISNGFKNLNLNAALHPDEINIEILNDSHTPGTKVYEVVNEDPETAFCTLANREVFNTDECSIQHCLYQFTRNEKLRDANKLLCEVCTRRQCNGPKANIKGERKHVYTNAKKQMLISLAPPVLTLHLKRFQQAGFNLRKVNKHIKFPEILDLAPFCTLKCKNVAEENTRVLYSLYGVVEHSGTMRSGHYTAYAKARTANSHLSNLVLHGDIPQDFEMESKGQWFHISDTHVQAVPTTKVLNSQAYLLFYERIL
CYP2D6: Cytochrome P450 2D6 (CYP2D6, Homo sapiens, UniProt P10635)
UniProt P10635, sequence (whole entry, looked up): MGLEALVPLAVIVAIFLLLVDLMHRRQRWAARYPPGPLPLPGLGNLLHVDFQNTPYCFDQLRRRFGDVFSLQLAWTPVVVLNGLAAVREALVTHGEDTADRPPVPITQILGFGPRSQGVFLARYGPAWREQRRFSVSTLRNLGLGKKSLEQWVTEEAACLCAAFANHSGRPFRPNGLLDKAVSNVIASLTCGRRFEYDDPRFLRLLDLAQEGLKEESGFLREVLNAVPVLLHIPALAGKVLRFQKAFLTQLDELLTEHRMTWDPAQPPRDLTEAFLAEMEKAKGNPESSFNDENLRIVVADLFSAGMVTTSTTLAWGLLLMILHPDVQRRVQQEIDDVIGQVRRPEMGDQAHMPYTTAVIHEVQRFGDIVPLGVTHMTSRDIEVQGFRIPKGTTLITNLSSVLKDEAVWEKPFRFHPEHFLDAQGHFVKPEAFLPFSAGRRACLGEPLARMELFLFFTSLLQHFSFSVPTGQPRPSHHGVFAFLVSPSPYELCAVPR
CYP2J2: Cytochrome P450 2J2 (CYP2J2, Homo sapiens, UniProt P51589)
UniProt P51589, sequence (whole entry, looked up): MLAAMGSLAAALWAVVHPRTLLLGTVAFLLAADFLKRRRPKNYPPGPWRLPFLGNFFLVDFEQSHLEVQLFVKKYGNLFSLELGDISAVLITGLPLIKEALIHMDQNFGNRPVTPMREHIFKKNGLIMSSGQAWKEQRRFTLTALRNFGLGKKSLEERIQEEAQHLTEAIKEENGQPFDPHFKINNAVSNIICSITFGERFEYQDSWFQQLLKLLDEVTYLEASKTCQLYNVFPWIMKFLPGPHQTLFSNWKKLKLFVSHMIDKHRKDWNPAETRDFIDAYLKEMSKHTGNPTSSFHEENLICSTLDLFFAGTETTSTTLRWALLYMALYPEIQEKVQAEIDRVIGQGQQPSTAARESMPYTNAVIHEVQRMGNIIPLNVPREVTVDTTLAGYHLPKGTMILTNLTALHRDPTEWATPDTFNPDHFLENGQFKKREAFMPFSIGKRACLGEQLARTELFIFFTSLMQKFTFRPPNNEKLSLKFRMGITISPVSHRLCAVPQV
GUK1 R133A: GUK1 (Homo sapiens, UniProt Q16774, R133A)
UniProt Q16774, sequence (whole entry, unmodified, looked up): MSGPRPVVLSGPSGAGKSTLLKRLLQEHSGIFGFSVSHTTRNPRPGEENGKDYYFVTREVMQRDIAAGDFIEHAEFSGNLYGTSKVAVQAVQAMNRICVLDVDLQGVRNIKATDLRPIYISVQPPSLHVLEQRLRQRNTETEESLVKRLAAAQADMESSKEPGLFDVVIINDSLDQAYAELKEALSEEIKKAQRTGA
DDX50 K187R: ATP-dependent RNA helicase DDX50 (DDX50, Homo sapiens, UniProt Q9BQ39, K187R)
UniProt Q9BQ39, sequence (whole entry, unmodified, looked up): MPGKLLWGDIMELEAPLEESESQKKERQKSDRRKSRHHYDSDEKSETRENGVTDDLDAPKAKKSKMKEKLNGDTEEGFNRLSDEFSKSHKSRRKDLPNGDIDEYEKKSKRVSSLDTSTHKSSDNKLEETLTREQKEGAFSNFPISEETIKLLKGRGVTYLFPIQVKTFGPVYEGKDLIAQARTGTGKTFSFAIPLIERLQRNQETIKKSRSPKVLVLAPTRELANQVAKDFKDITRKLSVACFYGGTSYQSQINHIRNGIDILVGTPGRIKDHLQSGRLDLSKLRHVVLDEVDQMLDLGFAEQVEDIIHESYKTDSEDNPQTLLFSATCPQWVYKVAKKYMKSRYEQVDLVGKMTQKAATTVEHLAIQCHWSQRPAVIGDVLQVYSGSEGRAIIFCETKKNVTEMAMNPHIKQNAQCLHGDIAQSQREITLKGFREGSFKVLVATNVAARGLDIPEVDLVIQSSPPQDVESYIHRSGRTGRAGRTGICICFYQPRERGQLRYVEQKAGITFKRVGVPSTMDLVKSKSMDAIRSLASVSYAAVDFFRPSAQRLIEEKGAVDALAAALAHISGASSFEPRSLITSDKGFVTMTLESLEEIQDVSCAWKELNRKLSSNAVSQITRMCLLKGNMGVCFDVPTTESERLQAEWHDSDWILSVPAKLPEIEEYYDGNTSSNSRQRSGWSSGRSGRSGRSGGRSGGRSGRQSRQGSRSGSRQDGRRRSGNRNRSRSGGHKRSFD
UniProt Q6NT16, sequence (whole entry, unmodified, looked up): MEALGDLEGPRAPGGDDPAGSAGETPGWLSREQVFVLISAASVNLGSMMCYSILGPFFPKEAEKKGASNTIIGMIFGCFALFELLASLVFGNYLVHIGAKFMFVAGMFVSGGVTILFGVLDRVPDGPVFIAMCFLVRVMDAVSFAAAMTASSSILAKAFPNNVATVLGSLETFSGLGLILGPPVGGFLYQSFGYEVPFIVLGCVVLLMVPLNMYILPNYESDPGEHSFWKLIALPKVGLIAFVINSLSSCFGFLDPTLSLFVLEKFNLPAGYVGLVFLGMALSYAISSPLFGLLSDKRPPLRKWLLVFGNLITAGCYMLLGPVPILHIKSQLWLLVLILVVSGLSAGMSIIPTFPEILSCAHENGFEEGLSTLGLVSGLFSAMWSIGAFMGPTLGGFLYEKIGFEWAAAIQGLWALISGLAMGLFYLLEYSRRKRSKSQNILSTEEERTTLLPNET
UniProt P27505, sequence (whole entry, looked up): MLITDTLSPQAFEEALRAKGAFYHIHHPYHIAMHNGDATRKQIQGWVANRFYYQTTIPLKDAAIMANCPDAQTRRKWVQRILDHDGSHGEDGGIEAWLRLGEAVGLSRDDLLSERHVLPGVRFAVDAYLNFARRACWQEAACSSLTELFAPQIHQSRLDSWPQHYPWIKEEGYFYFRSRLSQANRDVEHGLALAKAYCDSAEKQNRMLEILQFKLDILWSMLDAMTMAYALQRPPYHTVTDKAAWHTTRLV
UniProt Q9C098, sequence (whole entry, looked up): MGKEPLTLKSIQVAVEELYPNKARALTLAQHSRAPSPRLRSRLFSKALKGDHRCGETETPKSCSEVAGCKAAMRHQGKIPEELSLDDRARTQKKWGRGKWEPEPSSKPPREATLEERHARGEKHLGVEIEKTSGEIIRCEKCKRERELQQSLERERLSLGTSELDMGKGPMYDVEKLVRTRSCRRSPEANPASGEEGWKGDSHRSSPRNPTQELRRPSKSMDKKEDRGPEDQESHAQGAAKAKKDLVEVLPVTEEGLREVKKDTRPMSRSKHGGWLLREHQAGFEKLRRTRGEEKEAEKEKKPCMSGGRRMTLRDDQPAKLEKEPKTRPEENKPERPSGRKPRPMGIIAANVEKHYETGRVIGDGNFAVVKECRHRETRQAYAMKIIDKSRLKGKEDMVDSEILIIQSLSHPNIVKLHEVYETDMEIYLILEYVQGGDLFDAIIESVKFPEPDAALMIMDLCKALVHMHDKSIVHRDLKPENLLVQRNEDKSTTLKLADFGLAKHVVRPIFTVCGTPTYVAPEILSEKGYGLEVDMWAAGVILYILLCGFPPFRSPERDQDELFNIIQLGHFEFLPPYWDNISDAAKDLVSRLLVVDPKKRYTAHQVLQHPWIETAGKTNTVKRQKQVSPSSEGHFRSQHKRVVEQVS
UniProt Q9BY41, sequence (whole entry, looked up): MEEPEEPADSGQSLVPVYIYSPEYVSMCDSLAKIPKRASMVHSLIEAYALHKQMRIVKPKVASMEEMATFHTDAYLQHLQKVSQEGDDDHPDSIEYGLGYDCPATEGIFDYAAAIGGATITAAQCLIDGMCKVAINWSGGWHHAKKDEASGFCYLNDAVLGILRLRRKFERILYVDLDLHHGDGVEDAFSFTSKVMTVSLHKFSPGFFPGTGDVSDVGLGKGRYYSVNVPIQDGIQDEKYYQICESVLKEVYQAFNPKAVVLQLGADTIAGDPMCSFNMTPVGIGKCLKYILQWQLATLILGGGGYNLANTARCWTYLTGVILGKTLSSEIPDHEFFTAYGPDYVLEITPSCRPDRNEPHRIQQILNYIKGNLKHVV
UniProt O06974, sequence (whole entry, looked up): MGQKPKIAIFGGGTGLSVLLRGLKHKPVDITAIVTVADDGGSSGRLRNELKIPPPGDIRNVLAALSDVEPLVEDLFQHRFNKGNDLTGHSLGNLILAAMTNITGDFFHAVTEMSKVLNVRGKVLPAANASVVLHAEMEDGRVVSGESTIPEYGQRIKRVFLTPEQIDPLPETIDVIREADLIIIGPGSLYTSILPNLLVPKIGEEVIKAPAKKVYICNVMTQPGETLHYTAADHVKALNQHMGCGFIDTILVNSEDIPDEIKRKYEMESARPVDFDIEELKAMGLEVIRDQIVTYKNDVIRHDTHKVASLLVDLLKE

| SMILES | tested on | test | test system | conditions | scale | quantity | value |
| --- | --- | --- | --- | --- | --- | --- | --- |
| CC(C)(COP(=O)(O)OP(=O)(O)OC[C@H]1O[C@@H](n2cnc3c(N)ncnc32)[C@H](O)[C@@H]1OP(=O)(O)O)[C@@H](O)C(=O)NCCC(=O)NCCS | RNA cytidine acetyltransferase (Homo sapiens, UniProt Q9H0A0) | competitor, competition MS pulldown | SW-620 cell lysate | together with: photo-immobilized beads |  | Kd | 44.1 µM |
| O=C(O)CN1Cc2ccccc2C1=O | USP16 ZnF-UBD domain |  |  |  |  | Kd | > 1000 µM |
| C=Cn1ccnc1 | CYP2D6 | binding |  | 20 min, pH 7.4, purified protein, 2% DMSO |  | Kd | 186 µM |
| Nc1ncnc2c1ncn2[C@@H]1O[C@H](CSCC[C@H](N)C(=O)O)[C@@H](O)[C@H]1O | O-methyltransferase (Sorghum bicolor, UniProt A0A1B6PFV1) | ITC |  | 25 °C, apo enzyme |  | Kd | 25.5 ± 7.91 µM |
| NS(=O)(=O)c1ccccc1 | Carbonic anhydrase 6 (CA6, Homo sapiens, UniProt P23280) | binding, thermal shift |  | pH 7.0, 25 °C |  | Kd | 5 µM |
| C=C1CC(C(=O)Nc2cc(C(=O)NC)cc(-c3ccc(N4CCOCC4)cc3)c2OC)C1 | Triggering receptor expressed on myeloid cells 2 (Homo sapiens, UniProt Q9NZC2) | binding |  |  |  | Kd | 146 ± 9.7 µM |
| O=C(O)c1cc(C(=O)O)c2c(n1)c(O)c(O)c1cc(C(=O)O)[nH]c12 | Pyrroloquinoline-quinone synthase (pqqC, Klebsiella pneumoniae, UniProt P27505) | fluorescence titration |  | pH 8.0, room temperature, anaerobic |  | Kd | 0.05 µM |
| COc1cccc2c1C(=O)c1c(O)c3c(c(O)c1C2=O)C[C@@](O)(C(C)=O)C[C@@H]3O[C@H]1C[C@H](N)[C@H](O)[C@H](C)O1 | CYP2J2 |  |  | 2 min, pH 7.4 |  | Kd | 9.56 ± 1.01 µM |
| Nc1nc2c(ncn2[C@@H]2O[C@H](CO)[C@@H](O)[C@H]2O)c(=O)[nH]1 |  | binding, MIDAS equilibrium dialysis LC-MS | A2AR-BRIL thermostabilized | concentration not given | relative to: no-protein control | log2 fold change | -0.0517 |
| COc1cc(C(C)=O)c(F)cc1O | Casein kinase I isoform alpha (CSNK1A1, Homo sapiens, UniProt P48729) | binding, surface plasmon resonance |  | up to 50 µM |  | Kd | no binding |
| O=C(O)CCn1c(=O)oc2ccccc21 | USP16 ZnF-UBD domain |  |  |  |  | Kd | 981 µM |
| OC(Cn1ccnc1)c1ccc(Cl)cc1Cl (stereo not drawn) | CYP2D6 | binding |  | 20 min, pH 7.4, purified protein, 2% DMSO |  | Kd | 14.8 µM |
| Nc1nc(CC(=O)O)cs1 | USP16 ZnF-UBD domain |  |  |  |  | Kd | > 1000 µM |
| CCCCCCCC(=O)SCCNC(=O)CCNC(=O)[C@H](O)C(C)(C)COP(=O)(O)OP(=O)(O)OC[C@H]1O[C@@H](n2cnc3c(N)ncnc32)[C@H](O)[C@@H]1OP(=O)(O)O |  | binding, MIDAS equilibrium dialysis LC-MS | A2AR-BRIL thermostabilized | concentration not given | relative to: no-protein control | log2 fold change | 0.645 |
| Nc1ncnc2c1ncn2[C@@H]1O[C@H](CO[P@](=O)(O)O[P@](=O)(O)O[P@@](=O)(O)S)[C@@H](O)[C@H]1O | GUK1 R133A | binding, ITC |  | 25 °C, together with: GMP |  | Kd | > 400 µM |
| C[n+]1cn([C@@H]2O[C@H](COP(=O)(O)CP(=O)(O)OP(=O)(O)OC[C@H]3O[C@@H](n4cnc5c(=O)[nH]c(N)nc54)[C@H](O)[C@@H]3O)[C@@H](O)[C@H]2O)c2nc(N)[nH]c(=O)c21 | m7GpppX diphosphatase, WT/mutant heterodimer (DCPS, Homo sapiens, UniProt Q96C86) | binding, Trp fluorescence quenching | 10% glycerol | 20 °C |  | Kd | 0.00737 µM |
| CCCCCCCCCCCCCC(=O)O | uncharacterized protein (Kocuria marina, UniProt A0A0B0D9P4) | heme spectral shift, substrate, UV-visible spectral titration |  |  |  | Kd | 7.32 µM |
| CCCCC(=O)OCC(=O)[C@]1(O)Cc2c(O)c3c(c(O)c2[C@@H](O[C@H]2C[C@H](NC(=O)C(F)(F)F)[C@H](O)[C@H](C)O2)C1)C(=O)c1c(OC)cccc1C3=O | CYP2J2 |  |  | 2 min, pH 7.4 |  | Kd | 2.51 ± 0.14 µM |

| SMILES | tested on | test | test system | conditions | scale | quantity | value |
| --- | --- | --- | --- | --- | --- | --- | --- |
| Nc1ncnc2c1ncn2[C@@H]1O[C@H](COP(=O)(O)OP(=O)(O)O)[C@@H](O)[C@H]1O | GUK1 R133A | binding, ITC |  | 25 °C, together with: GMP |  | Kd | > 200 µM |
| O=C(O)COc1cnc2ccccc2n1 | USP16 ZnF-UBD domain |  |  |  |  | Kd | > 1000 µM |
| CCC1(c2cnc[nH]2)Cc2ccccc2C1 | CYP2D6 | binding |  | 20 min, pH 7.4, purified protein, 2% DMSO |  | Kd | 4.15 µM |
| O=C(O)CCC(=O)c1ccc2c(c1)CCC(=O)N2 | USP16 ZnF-UBD domain |  |  |  |  | Kd | 167 µM |
| OC[C@H]1OC(O)[C@H](O)[C@@H](O)[C@@H]1O (stereo partly drawn) | DDX50 K187R | microscale thermophoresis | PBST | 25 °C |  | Kd | 12.1 ± 8.3 µM |
| CC(=O)N[C@H]1[C@@H](OP(=O)(O)OP(=O)(O)OC[C@H]2O[C@@H](n3ccc(=O)[nH]c3=O)[C@H](O)[C@@H]2O)O[C@H](CO)[C@@H](O)[C@@H]1O | mgfK (Bacillus subtilis, UniProt O06974) | binding, fluorescence titration |  |  |  | Kd | 280 ± 40 µM |
| Nc1ncnc2c1ncn2[C@@H]1O[C@H](COP(=O)(O)OP(=O)(O)O)[C@@H](O)[C@H]1O | Creatine kinase U-type, mitochondrial (CKMT1A, Homo sapiens, UniProt P12532, E265Q) | microscale thermophoresis |  | pH 8.5, E227Q mutant, no substrate |  | Kd | 1 ± 0.8 µM |
| NCCCNCCCCNCCCN | MFS-type transporter SLC18B1 (SLC18B1, Homo sapiens, UniProt Q6NT16) | binder |  |  |  | Kd | 19.1 µM |
| OC[C@@H]1CO[C@](Cn2ccnc2)(c2ccc(Cl)cc2Cl)O1 (relative stereo) | CYP2D6 | binding |  | 20 min, pH 7.4, purified protein, 2% DMSO |  | Kd | 6.09 µM |
| CCCCOc1ccc(CC(=O)NO)cc1 | Histone deacetylase 8 (HDAC8, Homo sapiens, UniProt Q9BY41) | inhibitor, competition pulldown | SW620 and MV4-11 lysate | 1 h |  | Kd | > 30.2 µM |
| COc1cc2c(cc1OC)[C@H]1C[C@@H](O)[C@H](CC(C)C)CN1CC2 | MFS-type transporter SLC18B1 (SLC18B1, Homo sapiens, UniProt Q6NT16, Y51A) | binder |  | radiolabeled protein variants |  | Kd | 168 µM |
| Cc1ncc(CO)c(CO)c1O | MRP4 Myzus persicae | binding, microscale thermophoresis |  |  |  | Kd | 51.6 µM |
| O=C(O)CCc1ccc2c(c1)OCO2 | USP16 ZnF-UBD domain |  |  |  |  | Kd | > 1000 µM |
| Nc1ncnc2c1ncn2[C@@H]1O[C@H](COP(=O)(O)OP(=O)(O)OP(=O)(O)O)[C@@H](O)[C@H]1O | DDX50 K187R | binding, microscale thermophoresis |  | 25 °C, no glucose |  | Kd | 6.95 ± 3.82 µM |
| O=C(O)CCOc1ccccc1 | USP16 ZnF-UBD domain |  |  |  |  | Kd | > 1000 µM |
| C[N+](C)(C)Cc1cccc(N=Nc2cccc(C[N+](C)(C)C)c2)c1 | muscarinic receptor, Rana | agonist-induced potassium current, antagonist, Schild plot intercept | atrial trabeculae | together with: carbachol |  | Kd | 5 µM |
| NS(=O)(=O)c1ccc(NCC(=O)O)cc1 | USP16 ZnF-UBD domain |  |  |  |  | Kd | 428 µM |
| Cc1cc(Nc2cc3ncccc3c(N[C@@H]3C[C@H]4CC[C@@H](C3)N4CCC#N)n2)n[nH]1 | Serine/threonine-protein kinase DCLK3 (DCLK3, Homo sapiens, UniProt Q9C098) | binding, KINOMEscan |  |  |  | Kd | 0.024 µM |

A few entries again:
| SMILES | tested on | test | test system | conditions | scale | quantity | value |
| --- | --- | --- | --- | --- | --- | --- | --- |
| O=C(O)CCOc1ccccc1 | USP16 ZnF-UBD domain |  |  |  |  | Kd | > 1000 µM |
| NCCCNCCCCNCCCN | MFS-type transporter SLC18B1 (SLC18B1, Homo sapiens, UniProt Q6NT16) | binder |  |  |  | Kd | 19.1 µM |
